Measurements collected from several papers.
Compare with care: the assays were run in different laboratories. ± gives the spread as reported.

The unbound fraction of `Cc1c(C(=O)O)ccc2c3n(nc12)[C@@H]1[C@H](C3)N(CC2CC2)[C@@]2(C(=O)Nc3cc(Cl)ccc32)[C@H]1c1cccc(Cl)c1F` is reported as 0.0022 (equilibrium dialysis; human plasma; pH 7.4).
For `Cn1cncc1[C@@](N)(c1ccc(Cl)cc1)c1ccc2c(c1)c(-c1cccc(Cl)c1)cc(=O)n2C`, the unbound fraction was 0.0055 (cancer patients, mild hepatic impairment, plasma; 50 mg twice daily).
`COCC(=O)N1CCC[C@H](C(=O)NCc2nc(-c3ccc(C#N)cc3)cs2)C1` has an unbound fraction of 0.011 (plasma protein binding; rat plasma).
`Cc1cc(C)c(CNC(=O)c2cc(Cl)c3c(c2C)O[C@@](C)([C@H]2CC[C@H](N(C)C)CC2)O3)c(=O)[nH]1` gave an unbound fraction of 0.233 (ultracentrifugation; solution, alpha-1 acid glycoprotein, 0.1%; 5000 ng/mL, 160 min).
The unbound fraction of `CN[C@@H](C)C(=O)N[C@H]1CN(C(=O)CC(C)C)CC[C@H]2CC[C@@H](C(=O)NC(c3ccccc3)c3ccccc3)N2C1=O` is reported as 0.195 (ultrafiltration; plasma; 5 µg/mL, 1 h, 37 °C).
`Nc1c(CC(=O)O)cccc1C(=O)c1ccc(Br)cc1` has an unbound fraction of 0.005 (in vitro; plasma).
`O=C1N[C@H](c2cncc(C#Cc3ccccc3)c2)[C@@H](c2ccccc2Cl)O1` gave an unbound fraction of < 0.01 (monkey plasma).
With `CC1(C)C(/C=C/C=C/C=C/C=C2\N(CCCCS(=O)(=O)O)c3ccc4ccccc4c3C2(C)C)=[N+](CCCCS(=O)(=O)[O-])c2ccc3ccccc3c21` the unbound fraction was < 0.1 (mouse whole serum; 4 h).
The unbound fraction of `COCC(=O)N1CCC[C@H](C(=O)NCc2nc(-c3ccccc3)cs2)C1` is reported as 0.006 (plasma protein binding; human plasma).
For `N#C[C@@]1(c2ccc3c(N)ncnn23)O[C@H](CO)[C@@H](O)[C@H]1O`, the unbound fraction was 0.971 (plasma protein binding; rat plasma; 1 µM).
`Cc1cc(Nc2ccc(S(F)(F)(F)(F)F)cc2)n2ncnc2n1` gave an unbound fraction of 0.079 (rapid equilibrium dialysis; diluted mouse plasma; 2 µM).
`N#Cc1ccc([C@H]2CCc3cncn32)c(F)c1` has an unbound fraction of 0.636 (plasma).
`COc1cc(CC(=O)O)ccc1O` gave an unbound fraction of 0.65 ± 0.13 (plasma).
`CC[C@H]1OC(=O)[C@H](C)[C@@H](OC2CC(C)(OC)C(O)C(C)O2)[C@H](C)[C@@H](OC2OC(C)CC(NC)C2O)C(C)(O)C[C@@H](C)C(=O)[C@H](C)[C@@H](O)C1(C)O` (some centres unmarked) has an unbound fraction of 0.51 (equilibrium dialysis; human liver microsomes 0.5 mg/mL; 2 µM, 20 h, 37 °C, scaled to 1 mg/mL).
The unbound fraction of `CC1=NN(/C(=N/c2nnc(C)s2)Nc2ccc(C)c(C)c2)C(c2cc(F)c(F)c(F)c2)S1` (centres unmarked) is reported as 0.003 (mouse plasma).
With `C[C@H](CCC(=O)NCC(=O)O)[C@H]1CC[C@H]2[C@@H]3[C@H](O)C[C@@H]4C[C@H](OS(=O)(=O)O)CC[C@]4(C)[C@H]3CC[C@]12C` the unbound fraction was 0.0018 ± 0.0001 (plasma).
`C[C@@H](N)COc1ccc(-c2cnc3ccc(N[C@H](C)c4cccc(F)c4)nn23)cc1` has an unbound fraction of 0.0629 (rapid equilibrium dialysis; human plasma).
For `CC(C)(N)COCC(=O)N1CCC[C@H](C(=O)NCc2nc(-c3ccc(C(F)(F)F)cc3)cs2)C1`, the unbound fraction was 0.084 (plasma protein binding; rat plasma).
`Nc1ncnc2c1c(Oc1cc(C(F)(F)F)ccn1)nn2C1CC1` has an unbound fraction of 10.1% (mouse brain tissue).
The unbound fraction of `Cc1cc(Nc2ccc(S(F)(F)(F)(F)F)cc2)n2ccnc2n1` is reported as 0.027 (rapid equilibrium dialysis; diluted mouse plasma; 2 µM).
With `CCOCC(=O)N1CCC[C@H](C(=O)NCc2nc(-c3ccc(C)nc3)cs2)C1` the unbound fraction was 0.069 (plasma protein binding; rat plasma).
`COc1cnc(Nc2cnnc3ccc(-c4ccc(N5CCN(C)CC5)cc4)cc23)nc1` has an unbound fraction of 0.06 (equilibrium dialysis; human plasma; 10 µM, pH 7.4).
`CC[N+]1(C)CCN(c2ccc(NC(=O)c3cccc(C)n3)cc2)CC1` gave an unbound fraction of 0.68 (human plasma).
The unbound fraction of `CC(=O)N1CCN(c2ccc(OCC3COC(Cn4ccnc4)(c4ccc(Cl)cc4Cl)O3)cc2)CC1` (centres unmarked) is reported as 0.0199 (equilibrium dialysis; human plasma; 1 µM, 6 h).
With `CC(C)c1ncc(C(=O)N2CCOC3(CCN(Cc4ccc(F)c(CCNC[C@H](O)c5ccc(O)c6[nH]c(=O)sc56)c4)CC3)C2)s1` the unbound fraction was 0.024 (equilibrium dialysis; rat lung homogenate).
`CC(C)c1nc(N(C)S(C)(=O)=O)nc(-c2ccc(F)cc2)c1/C=C/[C@@H](O)C[C@@H](O)CC(=O)O` has an unbound fraction of 0.125 (in vitro; liver).
For `Cc1c(OCC(F)(F)F)ccnc1C[S+]([O-])c1nc2ccccc2[nH]1` (centres unmarked), the unbound fraction was 0.03 (plasma protein binding; pig plasma; 10 µg/mL).
For `NCCOCC(=O)N1CCC[C@H](C(=O)NCc2nc(-c3ccc(C(F)(F)F)cc3)cs2)C1`, the unbound fraction was 0.14 (plasma protein binding; rat plasma).
`CO[C@H]1C[C@@H]2CC[C@@H](C)[C@@](O)(O2)C(=O)C(=O)N2CCCC[C@H]2C(=O)O[C@H]([C@H](C)C[C@@H]2CC[C@@H](OC(=O)NCCOCCOCCOCCOCCOCCOCCOCCOCCC(=O)N3CCc4cc(Cn5nc(-c6ccc7oc(N)nc7c6)c6c(N)ncnc65)ccc4C3)[C@H](OC)C2)C[C@@H](O)[C@H](C)/C=C(\C)[C@@H](O)[C@@H](OC)C(=O)[C@H](C)C[C@H](C)/C=C/C=C/C=C/1C` gave an unbound fraction of 0.057 (ultracentrifugation; human plasma; 0.5 µM).

For quick reference, copied from above:
With `CCOCC(=O)N1CCC[C@H](C(=O)NCc2nc(-c3ccc(C)nc3)cs2)C1` the unbound fraction was 0.069 (plasma protein binding; rat plasma).
`COc1cnc(Nc2cnnc3ccc(-c4ccc(N5CCN(C)CC5)cc4)cc23)nc1` has an unbound fraction of 0.06 (equilibrium dialysis; human plasma; 10 µM, pH 7.4).
`CC[N+]1(C)CCN(c2ccc(NC(=O)c3cccc(C)n3)cc2)CC1` gave an unbound fraction of 0.68 (human plasma).
The unbound fraction of `CC(=O)N1CCN(c2ccc(OCC3COC(Cn4ccnc4)(c4ccc(Cl)cc4Cl)O3)cc2)CC1` (centres unmarked) is reported as 0.0199 (equilibrium dialysis; human plasma; 1 µM, 6 h).
